Experimental data collected from several papers.
Every numbered part comes from another study and shows a few of its results, in no order. Values joined by “and” are separate records of one study, mostly repeats; a detail may differ. Substitutions count along the parent as printed.
UniProt P48736, sequence (whole entry, looked up): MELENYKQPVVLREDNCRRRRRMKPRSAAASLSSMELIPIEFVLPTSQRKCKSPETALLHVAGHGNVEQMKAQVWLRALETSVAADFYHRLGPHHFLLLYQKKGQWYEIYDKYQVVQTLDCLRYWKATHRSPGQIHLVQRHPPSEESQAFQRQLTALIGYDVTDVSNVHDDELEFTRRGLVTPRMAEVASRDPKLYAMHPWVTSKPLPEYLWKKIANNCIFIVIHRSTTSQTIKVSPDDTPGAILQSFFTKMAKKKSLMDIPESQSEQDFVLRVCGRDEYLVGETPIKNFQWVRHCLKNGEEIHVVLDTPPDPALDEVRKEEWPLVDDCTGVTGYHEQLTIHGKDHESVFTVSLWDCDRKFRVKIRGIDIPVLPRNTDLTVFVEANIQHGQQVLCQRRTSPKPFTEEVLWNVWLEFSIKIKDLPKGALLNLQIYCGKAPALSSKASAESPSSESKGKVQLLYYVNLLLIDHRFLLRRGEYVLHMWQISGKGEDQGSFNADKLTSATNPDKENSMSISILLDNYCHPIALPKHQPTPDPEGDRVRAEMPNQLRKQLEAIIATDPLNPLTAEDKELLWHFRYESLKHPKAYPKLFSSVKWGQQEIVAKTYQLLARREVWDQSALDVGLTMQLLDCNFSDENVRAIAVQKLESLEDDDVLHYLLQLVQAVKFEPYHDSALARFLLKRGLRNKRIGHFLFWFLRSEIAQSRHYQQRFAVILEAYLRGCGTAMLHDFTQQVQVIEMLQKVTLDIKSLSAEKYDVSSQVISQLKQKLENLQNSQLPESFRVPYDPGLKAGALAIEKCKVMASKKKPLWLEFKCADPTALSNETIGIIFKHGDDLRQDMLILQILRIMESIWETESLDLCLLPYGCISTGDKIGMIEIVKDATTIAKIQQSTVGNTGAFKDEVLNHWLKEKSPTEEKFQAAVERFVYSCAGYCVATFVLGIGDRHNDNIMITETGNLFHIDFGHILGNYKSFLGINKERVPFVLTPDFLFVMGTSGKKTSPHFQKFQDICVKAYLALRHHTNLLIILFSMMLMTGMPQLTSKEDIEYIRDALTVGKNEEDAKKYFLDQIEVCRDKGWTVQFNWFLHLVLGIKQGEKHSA
UniProt Q9BXA7, sequence (whole entry, looked up): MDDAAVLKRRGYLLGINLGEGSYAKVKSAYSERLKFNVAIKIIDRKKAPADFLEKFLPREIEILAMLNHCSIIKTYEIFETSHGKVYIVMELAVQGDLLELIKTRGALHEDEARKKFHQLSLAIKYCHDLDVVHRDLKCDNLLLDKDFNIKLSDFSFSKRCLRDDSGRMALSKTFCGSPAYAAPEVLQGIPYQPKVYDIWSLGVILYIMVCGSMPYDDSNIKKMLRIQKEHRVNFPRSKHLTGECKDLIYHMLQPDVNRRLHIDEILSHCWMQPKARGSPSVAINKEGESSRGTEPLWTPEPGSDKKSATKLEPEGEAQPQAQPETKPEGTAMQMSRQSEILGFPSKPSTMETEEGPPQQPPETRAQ
UniProt Q16816, sequence (whole entry, looked up): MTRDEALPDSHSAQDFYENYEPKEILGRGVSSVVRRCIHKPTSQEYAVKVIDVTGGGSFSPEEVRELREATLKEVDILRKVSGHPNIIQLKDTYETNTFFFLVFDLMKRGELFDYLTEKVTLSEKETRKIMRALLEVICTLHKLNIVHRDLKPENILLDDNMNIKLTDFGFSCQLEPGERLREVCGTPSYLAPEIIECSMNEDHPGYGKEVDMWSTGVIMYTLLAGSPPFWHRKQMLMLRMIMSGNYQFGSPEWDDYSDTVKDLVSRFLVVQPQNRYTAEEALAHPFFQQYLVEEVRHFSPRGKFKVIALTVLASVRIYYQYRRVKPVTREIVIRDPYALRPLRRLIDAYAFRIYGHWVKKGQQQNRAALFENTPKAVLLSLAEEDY
UniProt P29597, sequence (whole entry, looked up): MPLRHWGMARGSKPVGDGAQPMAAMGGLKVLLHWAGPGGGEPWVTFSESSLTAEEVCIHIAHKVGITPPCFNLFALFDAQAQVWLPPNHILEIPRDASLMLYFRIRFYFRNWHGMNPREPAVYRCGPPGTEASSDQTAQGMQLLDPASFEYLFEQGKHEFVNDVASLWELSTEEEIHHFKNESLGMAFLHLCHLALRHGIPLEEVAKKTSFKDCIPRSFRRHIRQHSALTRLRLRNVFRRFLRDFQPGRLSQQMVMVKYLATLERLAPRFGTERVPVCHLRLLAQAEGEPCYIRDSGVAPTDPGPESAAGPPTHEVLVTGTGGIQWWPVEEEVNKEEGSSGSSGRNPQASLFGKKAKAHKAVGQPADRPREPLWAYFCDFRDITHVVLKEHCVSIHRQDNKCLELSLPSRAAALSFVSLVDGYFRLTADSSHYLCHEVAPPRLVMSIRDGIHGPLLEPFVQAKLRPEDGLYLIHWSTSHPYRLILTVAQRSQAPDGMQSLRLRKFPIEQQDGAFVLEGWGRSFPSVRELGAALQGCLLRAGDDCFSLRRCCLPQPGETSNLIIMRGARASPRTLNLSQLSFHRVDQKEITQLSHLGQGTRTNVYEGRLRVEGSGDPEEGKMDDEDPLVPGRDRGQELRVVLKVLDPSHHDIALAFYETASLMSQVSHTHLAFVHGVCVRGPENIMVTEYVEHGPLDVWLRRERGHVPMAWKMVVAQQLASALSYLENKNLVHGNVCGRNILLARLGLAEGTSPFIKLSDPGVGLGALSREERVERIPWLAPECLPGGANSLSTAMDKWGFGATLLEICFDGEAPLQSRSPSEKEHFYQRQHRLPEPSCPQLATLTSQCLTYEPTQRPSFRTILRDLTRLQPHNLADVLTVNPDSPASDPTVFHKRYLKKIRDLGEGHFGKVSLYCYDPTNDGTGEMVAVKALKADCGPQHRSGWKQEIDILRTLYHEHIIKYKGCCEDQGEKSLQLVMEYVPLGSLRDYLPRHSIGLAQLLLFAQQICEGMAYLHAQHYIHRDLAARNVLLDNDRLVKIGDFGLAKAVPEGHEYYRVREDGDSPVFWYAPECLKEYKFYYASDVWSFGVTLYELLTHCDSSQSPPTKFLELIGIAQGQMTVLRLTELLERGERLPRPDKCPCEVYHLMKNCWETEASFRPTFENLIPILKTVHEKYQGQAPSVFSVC
UniProt Q08881, sequence (whole entry, looked up): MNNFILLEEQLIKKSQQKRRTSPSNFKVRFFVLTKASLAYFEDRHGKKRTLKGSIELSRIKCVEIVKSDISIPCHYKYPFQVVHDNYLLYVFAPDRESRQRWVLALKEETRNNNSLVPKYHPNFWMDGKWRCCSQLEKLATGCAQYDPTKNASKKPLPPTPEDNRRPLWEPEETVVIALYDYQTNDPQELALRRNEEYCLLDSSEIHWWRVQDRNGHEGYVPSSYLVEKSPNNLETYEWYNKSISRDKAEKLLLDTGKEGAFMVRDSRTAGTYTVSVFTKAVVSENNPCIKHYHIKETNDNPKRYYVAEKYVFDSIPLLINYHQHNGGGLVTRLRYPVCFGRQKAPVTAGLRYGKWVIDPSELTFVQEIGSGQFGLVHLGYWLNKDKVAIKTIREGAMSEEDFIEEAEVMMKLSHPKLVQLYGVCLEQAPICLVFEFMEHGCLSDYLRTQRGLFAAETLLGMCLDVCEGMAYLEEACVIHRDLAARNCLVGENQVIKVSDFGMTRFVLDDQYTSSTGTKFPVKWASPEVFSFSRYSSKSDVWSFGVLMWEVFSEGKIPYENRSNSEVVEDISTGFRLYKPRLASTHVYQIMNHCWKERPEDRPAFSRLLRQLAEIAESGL
UniProt Q9Y2U5, sequence (whole entry, looked up): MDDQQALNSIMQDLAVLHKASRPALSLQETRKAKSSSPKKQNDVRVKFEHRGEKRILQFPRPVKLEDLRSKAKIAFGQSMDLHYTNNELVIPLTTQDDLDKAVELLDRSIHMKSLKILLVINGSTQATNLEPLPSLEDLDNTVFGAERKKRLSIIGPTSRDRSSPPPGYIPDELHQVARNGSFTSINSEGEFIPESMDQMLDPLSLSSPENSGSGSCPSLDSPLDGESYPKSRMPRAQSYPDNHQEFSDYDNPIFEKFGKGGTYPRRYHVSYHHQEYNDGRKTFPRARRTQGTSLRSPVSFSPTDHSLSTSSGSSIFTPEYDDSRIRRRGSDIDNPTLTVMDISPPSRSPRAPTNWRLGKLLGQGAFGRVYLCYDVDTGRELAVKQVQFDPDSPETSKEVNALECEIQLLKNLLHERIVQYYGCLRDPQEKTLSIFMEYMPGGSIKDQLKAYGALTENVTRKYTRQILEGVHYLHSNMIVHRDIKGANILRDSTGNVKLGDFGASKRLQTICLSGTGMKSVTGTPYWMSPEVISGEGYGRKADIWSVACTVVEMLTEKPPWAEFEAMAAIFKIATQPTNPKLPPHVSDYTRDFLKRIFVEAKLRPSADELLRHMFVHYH
UniProt P04629, sequence (whole entry, looked up): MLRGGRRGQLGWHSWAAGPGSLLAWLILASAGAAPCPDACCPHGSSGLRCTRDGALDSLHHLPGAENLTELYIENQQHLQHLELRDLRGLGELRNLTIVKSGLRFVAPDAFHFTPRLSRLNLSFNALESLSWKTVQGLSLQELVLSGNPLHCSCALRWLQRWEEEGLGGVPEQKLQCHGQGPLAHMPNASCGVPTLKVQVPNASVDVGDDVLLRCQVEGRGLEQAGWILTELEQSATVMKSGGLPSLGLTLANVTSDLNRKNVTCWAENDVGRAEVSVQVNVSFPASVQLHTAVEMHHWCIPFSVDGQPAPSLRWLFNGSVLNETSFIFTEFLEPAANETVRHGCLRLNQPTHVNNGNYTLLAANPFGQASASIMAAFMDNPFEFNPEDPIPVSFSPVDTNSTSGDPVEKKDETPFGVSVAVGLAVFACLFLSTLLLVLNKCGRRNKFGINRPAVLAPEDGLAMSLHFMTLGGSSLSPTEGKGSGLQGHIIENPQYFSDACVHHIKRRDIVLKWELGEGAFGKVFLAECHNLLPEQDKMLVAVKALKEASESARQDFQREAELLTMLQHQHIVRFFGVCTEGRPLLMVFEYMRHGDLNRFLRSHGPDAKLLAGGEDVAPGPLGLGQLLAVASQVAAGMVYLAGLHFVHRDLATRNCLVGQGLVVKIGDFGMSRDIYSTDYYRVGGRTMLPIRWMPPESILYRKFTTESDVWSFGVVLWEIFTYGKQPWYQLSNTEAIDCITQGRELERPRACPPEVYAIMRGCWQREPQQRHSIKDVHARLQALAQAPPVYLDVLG

Set 1 — target: CRIPT, C-terminal peptide; technique: DHFR complementation, deep sequencing; medium: yeast; relative to: wild type; direction: higher = weaker binding
Setting: single substitutions, model-inferred values
Starting sequence: ERBIN, PDZ domain 1 (human); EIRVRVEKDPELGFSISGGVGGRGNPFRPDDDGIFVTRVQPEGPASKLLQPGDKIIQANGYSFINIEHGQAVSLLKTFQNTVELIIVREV; partner TKNYKQTSV
Variant | binding free energy change
F78C | 0.294 kcal/mol
N25I | 0.851 kcal/mol
D32A | 0.0307 kcal/mol
G33C | 0.946 kcal/mol
L74N | 0.215 kcal/mol
T77D | 0.134 kcal/mol
V90W | -0.0868 kcal/mol
V20I | 0.0192 kcal/mol

Set 2 — effect on: cell-free assay; technique: competition with immobilised ligand; concentration: 1 µM
Compound: Cc1nc(Cc2cccc(C(F)(F)F)c2)sc1-c1ccc(C(N)=O)nc1
target | remaining binding [%]
Tyrosine-protein kinase ITK/TSK (ITK, Homo sapiens, UniProt Q08881) | 100
Mitogen-activated protein kinase kinase kinase 2 (MAP3K2, Homo sapiens, UniProt Q9Y2U5) | 100
High affinity nerve growth factor receptor (NTRK1, Homo sapiens, UniProt P04629) | 64
Testis-specific serine/threonine-protein kinase 1 (TSSK1B, Homo sapiens, UniProt Q9BXA7) | 54
Tyrosine-protein kinase JAK1, JH1 (JAK1, Homo sapiens, UniProt P23458) | 86
Phosphatidylinositol 4,5-bisphosphate 3-kinase catalytic subunit gamma isoform (PIK3CG, Homo sapiens, UniProt P48736) | 78
Phosphorylase b kinase gamma catalytic chain, skeletal muscle/heart isoform (PHKG1, Homo sapiens, UniProt Q16816) | 84
Mitogen-activated protein kinase kinase kinase kinase 4 (MAP4K4, Homo sapiens, UniProt O95819) | 80
Dual specificity mitogen-activated protein kinase kinase 5 (MAP2K5, Homo sapiens, UniProt Q13163) | 85
Cyclin-dependent kinase 4, with cyclin D1 (CDK4, Homo sapiens, UniProt P11802) | 100
Hormonally up-regulated neu tumor-associated kinase (HUNK, Homo sapiens, UniProt P57058) | 90
Mitogen-activated protein kinase 12 (MAPK12, Homo sapiens, UniProt P53778) | 100
Non-receptor tyrosine-protein kinase TYK2, JH2 (TYK2, Homo sapiens, UniProt P29597) | 100
Macrophage-stimulating protein receptor (MST1R, Homo sapiens, UniProt Q04912) | 100

Set 3 — technique: phase 2a trial; species: idiopathic pulmonary fibrosis patients
Structure (SMILES): CC(C)n1cnc(-c2ccc(F)cc2)c1-c1ncc(C(=O)Nc2ccc(N3CCN(C)CC3)cc2)[nH]1
dose | setting | patients with ALT increased [%]
dose not given | adverse event grade 4, all dose arms pooled | 0
60 mg once daily | adverse event grade 2 | 2
60 mg once daily | adverse event grade 3 | 0

Single results of other studies
Structure (SMILES) | assay | system | setting | measurement | result
CCOC(=O)Cn1ccc2cc(N3C(=O)N4CCCC4(C)C3=O)ccc21 (centres unmarked) |  | human, microsomes or S9 | 2 µM, 0.5 h | remaining compound | 12.4%
NC(=O)N1c2ccccc2C=Cc2ccccc21 |  | human | 6 h | fraction unbound | 0.346
Cc1[nH]c(=O)[nH]c(=O)c1S(=O)(=O)NCC(Cc1ccccc1F)c1ccccc1 (centres unmarked) |  | human, microsomes or S9 | 2 µM, 0.5 h | remaining compound | > 100%
COc1cc(C(=O)OCCCN2CCCN(CCCOC(=O)c3cc(OC)c(OC)c(OC)c3)CC2)cc(OC)c1OC | electrocardiography | mouse | intraperitoneal, 30 mg/kg, before dosing | heart rate | 607 beats/min and 569 beats/min and 587 beats/min

For quick reference, copied from above (set 2):
target | remaining binding [%]
High affinity nerve growth factor receptor (NTRK1, Homo sapiens, UniProt P04629) | 64
Phosphatidylinositol 4,5-bisphosphate 3-kinase catalytic subunit gamma isoform (PIK3CG, Homo sapiens, UniProt P48736) | 78
